Measured values from different studies.
Parts stem from different laboratories: compare values within a part only.

Sample 1
Target: Max-binding protein MNT, bHLH-zipper, MAX partner unstated (MNT, Homo sapiens, UniProt Q99583, residues 220-300)
Method: protein-binding microarray
Form: double-stranded DNA, one strand shown
Sample: in vitro
Tested at: not given
Notes: k-mer, scored over probes, only values ≥0.25
Reading: higher = stronger binding
Construct (chain): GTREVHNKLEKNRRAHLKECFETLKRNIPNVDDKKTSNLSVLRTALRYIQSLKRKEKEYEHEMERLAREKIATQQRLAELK
Oligonucleotide | E-score
GCATGGAA | 0.346
CGACCCCA | 0.252
ACACGTTG | 0.442
ACATGCGG | 0.446
ACGTTTGC | 0.299

Sample 2
Target: Sal-like protein 4, full length isoform B (SALL4, Homo sapiens, UniProt Q9UJQ4-2, residues 1-616)
Method: universal PBM
Form: double-stranded DNA, one strand shown
Sample: in vitro
Tested at: not given
Notes: 8-mer, flanks averaged, mean of replicates
Reading: higher = stronger binding
Oligonucleotide | E-score
CAGCGGTC | -0.3
GTGAACCA | 0.044
AAATTCAG | 0.133
GGTCTTGA | -0.224
AAAATGAG | 0.252
GCTTACTA | 0.145
GGCCGCCA | -0.253

Sample 3
Target: Histone acetyltransferase KAT6A, both winged helices, GST fusion (KAT6A, Homo sapiens, UniProt Q92794, residues 1-181)
Method: protein binding microarray
Form: double-stranded DNA, one strand shown
Sample: in vitro
Tested at: not given
Notes: 8-mer, flanks averaged, mean of 2 arrays, mostly near background
Reference: not given
Reading: higher = stronger binding
Target sequence (chain): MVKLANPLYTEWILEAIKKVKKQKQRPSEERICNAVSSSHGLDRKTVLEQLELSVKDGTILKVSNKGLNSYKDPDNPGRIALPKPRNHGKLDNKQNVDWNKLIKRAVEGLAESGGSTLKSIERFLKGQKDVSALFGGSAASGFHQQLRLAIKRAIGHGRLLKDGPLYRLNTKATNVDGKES
Oligonucleotide | E-score
CTGCACGC | 0.146
AGGGAGGC | -0.2
AGCTAAAG | -0.143
AAGTCGTG | -0.0523
GGAAGCCC | 0.0638

Further values, each from its own experiment
Substance | target | assay | system | setting | how to read | quantity | result
PhoQ, residues 284 288 289 292 302 303 SSYNSA | PhoP, residues 12 14 15 18 19 AGCRL (Escherichia coli, UniProt P23836) | Sort-seq, measured: YFP reporter | E. coli | PhoQ-PhoP variant library, added: 10 µM Mg2+ | reference: high Mg2+ state, higher = stronger signaling | fold induction | 6.61
